Measured values from different studies.
Protocols differ between the studies behind these lines. Several values in a cell are separate wells, animals, samples, runs or records. ± marks the error that the study gave.
KLRK1 with MICA: NKG2-D type II integral membrane protein, with MICA (KLRK1, Homo sapiens, UniProt P26718)
UniProt P26718, sequence (whole entry, looked up): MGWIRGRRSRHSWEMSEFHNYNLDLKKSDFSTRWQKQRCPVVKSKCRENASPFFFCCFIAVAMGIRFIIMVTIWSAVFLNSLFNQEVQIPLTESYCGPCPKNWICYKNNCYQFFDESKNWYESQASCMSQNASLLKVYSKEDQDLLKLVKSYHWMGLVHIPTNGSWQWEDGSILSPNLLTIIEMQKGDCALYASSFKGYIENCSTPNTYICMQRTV
Metallo-beta-lactamase type 2: Metallo-beta-lactamase type 2 (Serratia marcescens, UniProt P52699)
NPY4R: Neuropeptide Y receptor type 4 (NPY4R, Homo sapiens, UniProt P50391)
UniProt P50391, sequence (whole entry, looked up): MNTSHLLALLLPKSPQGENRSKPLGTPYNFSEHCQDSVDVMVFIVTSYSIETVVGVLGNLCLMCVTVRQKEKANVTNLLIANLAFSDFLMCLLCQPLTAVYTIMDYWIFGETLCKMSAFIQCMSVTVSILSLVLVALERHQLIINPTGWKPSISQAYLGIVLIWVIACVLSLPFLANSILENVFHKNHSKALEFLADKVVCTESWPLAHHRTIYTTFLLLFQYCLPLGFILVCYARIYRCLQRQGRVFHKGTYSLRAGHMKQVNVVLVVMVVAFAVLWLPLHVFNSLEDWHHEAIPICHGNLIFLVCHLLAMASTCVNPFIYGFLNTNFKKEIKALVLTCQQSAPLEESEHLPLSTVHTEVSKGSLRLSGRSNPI
UniProt P37136, sequence (whole entry, looked up): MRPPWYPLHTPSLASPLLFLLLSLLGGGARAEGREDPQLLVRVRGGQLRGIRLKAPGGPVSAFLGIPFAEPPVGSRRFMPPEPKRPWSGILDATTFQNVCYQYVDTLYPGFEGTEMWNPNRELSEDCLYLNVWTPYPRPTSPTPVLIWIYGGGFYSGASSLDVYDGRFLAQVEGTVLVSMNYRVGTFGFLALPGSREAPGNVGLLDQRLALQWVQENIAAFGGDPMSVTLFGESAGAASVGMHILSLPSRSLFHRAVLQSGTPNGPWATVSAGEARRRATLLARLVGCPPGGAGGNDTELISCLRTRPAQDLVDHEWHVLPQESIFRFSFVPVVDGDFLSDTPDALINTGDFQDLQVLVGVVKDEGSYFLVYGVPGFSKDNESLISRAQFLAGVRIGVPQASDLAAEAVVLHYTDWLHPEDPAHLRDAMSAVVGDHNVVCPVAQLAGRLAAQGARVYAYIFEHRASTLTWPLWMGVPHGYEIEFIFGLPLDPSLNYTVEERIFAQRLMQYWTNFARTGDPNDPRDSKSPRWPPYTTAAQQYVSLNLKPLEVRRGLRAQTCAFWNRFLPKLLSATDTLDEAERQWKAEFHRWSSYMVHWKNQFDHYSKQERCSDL
UniProt P53350, sequence (whole entry, looked up): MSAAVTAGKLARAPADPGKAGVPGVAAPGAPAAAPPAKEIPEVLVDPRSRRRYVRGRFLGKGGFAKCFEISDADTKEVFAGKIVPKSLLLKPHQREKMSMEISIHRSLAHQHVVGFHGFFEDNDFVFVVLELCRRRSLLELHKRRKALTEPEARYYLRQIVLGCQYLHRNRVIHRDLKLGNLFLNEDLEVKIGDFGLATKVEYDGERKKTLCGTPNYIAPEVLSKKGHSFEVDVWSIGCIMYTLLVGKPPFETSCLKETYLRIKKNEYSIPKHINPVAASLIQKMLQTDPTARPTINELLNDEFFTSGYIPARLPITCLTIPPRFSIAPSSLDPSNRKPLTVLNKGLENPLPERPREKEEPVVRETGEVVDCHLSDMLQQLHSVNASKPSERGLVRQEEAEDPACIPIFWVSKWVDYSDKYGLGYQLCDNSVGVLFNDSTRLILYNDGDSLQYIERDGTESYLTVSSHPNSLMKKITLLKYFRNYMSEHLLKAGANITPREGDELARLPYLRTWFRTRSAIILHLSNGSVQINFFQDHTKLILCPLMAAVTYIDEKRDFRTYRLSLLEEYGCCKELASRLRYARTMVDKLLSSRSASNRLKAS
UniProt P35917, sequence (whole entry, looked up): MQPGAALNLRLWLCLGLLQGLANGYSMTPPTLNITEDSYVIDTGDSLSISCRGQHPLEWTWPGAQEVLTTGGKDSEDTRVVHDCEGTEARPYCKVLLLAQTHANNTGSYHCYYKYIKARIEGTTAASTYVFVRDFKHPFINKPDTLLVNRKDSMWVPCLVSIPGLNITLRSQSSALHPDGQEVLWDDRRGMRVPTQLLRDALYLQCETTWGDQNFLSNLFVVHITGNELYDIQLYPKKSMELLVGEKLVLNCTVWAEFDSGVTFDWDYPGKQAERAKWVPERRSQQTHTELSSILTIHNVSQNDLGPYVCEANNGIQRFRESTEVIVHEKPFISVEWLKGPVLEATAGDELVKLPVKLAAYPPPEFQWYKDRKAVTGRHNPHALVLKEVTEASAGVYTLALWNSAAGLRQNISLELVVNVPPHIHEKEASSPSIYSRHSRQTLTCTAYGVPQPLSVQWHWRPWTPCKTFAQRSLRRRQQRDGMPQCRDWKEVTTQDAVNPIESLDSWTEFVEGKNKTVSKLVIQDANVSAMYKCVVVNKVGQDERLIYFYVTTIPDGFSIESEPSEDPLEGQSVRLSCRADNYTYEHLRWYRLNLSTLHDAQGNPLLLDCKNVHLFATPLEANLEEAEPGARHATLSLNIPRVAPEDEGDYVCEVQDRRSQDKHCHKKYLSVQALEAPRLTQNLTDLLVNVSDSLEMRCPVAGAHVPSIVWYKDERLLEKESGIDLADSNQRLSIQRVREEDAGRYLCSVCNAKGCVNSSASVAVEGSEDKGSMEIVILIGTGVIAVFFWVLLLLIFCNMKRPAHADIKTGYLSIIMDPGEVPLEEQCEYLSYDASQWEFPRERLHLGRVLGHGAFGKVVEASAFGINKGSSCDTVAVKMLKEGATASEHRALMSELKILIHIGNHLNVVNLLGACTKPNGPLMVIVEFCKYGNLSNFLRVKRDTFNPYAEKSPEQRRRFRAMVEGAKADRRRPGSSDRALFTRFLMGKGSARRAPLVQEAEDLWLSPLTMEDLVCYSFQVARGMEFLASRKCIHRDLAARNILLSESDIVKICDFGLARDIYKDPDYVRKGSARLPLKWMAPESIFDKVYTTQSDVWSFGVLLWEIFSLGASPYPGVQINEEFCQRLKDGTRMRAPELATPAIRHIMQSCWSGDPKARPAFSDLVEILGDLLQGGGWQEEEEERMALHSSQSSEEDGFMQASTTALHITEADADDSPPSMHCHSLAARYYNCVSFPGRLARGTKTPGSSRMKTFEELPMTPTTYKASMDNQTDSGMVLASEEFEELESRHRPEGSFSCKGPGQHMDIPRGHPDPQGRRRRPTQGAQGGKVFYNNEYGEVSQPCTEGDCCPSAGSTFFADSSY
UniProt Q007T0, sequence (whole entry, looked up): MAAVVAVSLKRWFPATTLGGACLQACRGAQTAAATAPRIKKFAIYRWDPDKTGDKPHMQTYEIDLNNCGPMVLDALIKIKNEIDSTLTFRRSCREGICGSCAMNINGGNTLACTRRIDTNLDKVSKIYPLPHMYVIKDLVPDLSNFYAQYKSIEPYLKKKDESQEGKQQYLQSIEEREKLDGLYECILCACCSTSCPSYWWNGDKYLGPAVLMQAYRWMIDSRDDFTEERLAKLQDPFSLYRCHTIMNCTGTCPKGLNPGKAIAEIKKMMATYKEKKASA
UniProt Q9H4M9, sequence (whole entry, looked up): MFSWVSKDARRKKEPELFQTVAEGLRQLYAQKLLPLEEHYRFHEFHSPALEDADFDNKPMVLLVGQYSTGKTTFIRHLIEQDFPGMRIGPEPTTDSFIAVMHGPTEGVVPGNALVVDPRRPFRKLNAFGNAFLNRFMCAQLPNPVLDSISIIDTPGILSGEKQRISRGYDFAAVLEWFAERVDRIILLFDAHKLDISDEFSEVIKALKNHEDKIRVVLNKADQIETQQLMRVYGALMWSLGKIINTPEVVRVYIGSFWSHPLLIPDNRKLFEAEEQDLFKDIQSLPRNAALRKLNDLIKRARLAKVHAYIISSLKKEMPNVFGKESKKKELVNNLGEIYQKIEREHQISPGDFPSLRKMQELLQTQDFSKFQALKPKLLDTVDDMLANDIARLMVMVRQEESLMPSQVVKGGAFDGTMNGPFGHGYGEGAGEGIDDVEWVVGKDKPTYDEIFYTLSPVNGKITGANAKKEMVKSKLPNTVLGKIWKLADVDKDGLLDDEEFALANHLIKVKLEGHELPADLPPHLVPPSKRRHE
UniProt O88867, sequence (whole entry, looked up): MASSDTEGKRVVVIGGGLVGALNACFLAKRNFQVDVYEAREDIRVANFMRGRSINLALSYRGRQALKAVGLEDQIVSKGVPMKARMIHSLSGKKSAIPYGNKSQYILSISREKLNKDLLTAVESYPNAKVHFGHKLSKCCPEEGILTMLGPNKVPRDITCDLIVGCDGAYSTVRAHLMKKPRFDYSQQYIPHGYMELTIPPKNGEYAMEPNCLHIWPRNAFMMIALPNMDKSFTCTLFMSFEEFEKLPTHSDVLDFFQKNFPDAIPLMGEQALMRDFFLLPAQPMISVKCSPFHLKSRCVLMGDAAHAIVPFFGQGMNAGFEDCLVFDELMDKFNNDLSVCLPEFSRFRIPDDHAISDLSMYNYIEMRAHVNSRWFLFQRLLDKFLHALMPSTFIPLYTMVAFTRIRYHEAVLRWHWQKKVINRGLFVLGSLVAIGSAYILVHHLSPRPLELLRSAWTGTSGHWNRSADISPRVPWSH
UniProt P30101, sequence (whole entry, looked up): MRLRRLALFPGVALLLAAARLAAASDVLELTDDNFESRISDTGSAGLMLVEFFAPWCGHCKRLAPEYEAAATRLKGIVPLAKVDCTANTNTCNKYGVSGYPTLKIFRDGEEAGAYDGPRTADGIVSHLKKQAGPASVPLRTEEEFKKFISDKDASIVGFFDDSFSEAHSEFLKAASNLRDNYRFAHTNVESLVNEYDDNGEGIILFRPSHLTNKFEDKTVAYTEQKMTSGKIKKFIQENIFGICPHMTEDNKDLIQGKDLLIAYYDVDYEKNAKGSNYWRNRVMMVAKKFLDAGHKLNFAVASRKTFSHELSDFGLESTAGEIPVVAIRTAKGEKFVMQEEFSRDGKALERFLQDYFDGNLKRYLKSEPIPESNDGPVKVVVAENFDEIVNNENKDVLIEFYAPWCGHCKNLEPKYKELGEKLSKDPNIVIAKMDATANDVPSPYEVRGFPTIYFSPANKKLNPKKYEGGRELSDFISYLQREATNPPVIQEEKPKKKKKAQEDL

With `CC12CC(c3ccoc3)OC(=O)C1CCC1(C)C2C2OC(=O)C1(O)C1OC21` (stereo not shown) the IC50 was 35.9 µM (Acetylcholinesterase (Ache, Rattus norvegicus, UniProt P37136); enzyme activity, inhibitor, Ellman).
`CC[C@H](C)[C@@H]1NC(=O)[C@H](CCCNC(=N)N)NC(=O)[C@H](CC(C)C)NC(=O)[C@H](CC(C)C)NC(=O)[C@H](Cc2ccc(O)cc2)NC(=O)[C@H](CC(C)C)NC(=O)[C@H](CCCCN)NC(=O)[C@H](CCCCN)NC(=O)[C@H](Cc2c[nH]cn2)NC(=O)[C@H]([C@@H](C)CC)NC(=O)[C@H](C(C)C)NC(=O)[C@H](C(C)C)NC(=O)[C@H]([C@@H](C)CC)NC(=O)[C@H](CCCNC(=N)N)NC(=O)[C@H](Cc2ccc(O)cc2)NC(=O)CSC[C@@H](C(=O)NCC(N)=O)NC(=O)CNC1=O` gave an IC50 of 1.58 µM (Nicotinamide N-methyltransferase (NNMT, Homo sapiens, UniProt P40261); enzyme activity, inhibitor, mass spectrometry).
For `CC(=O)[O][Cu+].CN1CCCN2CCN(C)CCCN(CC1)CC2`, the IC50 was 0.186 µM (C-X-C chemokine receptor type 4 (CXCR4, Homo sapiens, UniProt P61073); calcium signal, antagonist, fluorescence).
`COc1cc2c(cc1O)oc(=O)c1c3cc(O)c(O)cc3oc21` gave an IC50 of 70 µM (Genome polyprotein, NS5B polymerase (Hepatitis C virus genotype 1b, UniProt P26663); RNA polymerase activity, inhibitor; NS5B-RNA preincubated before inhibitor).
`CC[C@H](C)[C@H](NC(=O)[C@H](C)NC(=O)[C@H](CS)NC(=O)[C@@H]1CCCN1)C(=O)N[C@@H](Cc1c[nH]c2ccccc12)C(=O)N[C@@H](Cc1ccccc1)C(=O)O` has an IC50 of less than 40.8 µM (Vascular endothelial growth factor receptor 3 (Mus musculus, UniProt P35917); ligand displacement).
`Cc1ccc2nc(C(F)(F)F)c(C(=O)NCc3cccc(Cl)c3)n2c1` has an IC50 of 14 µM (Cytochrome P450 2C19 (CYP2C19, Homo sapiens, UniProt P33261); inhibitor).
`NC[C@@H]1O[C@H](O[C@H]2[C@@H](O)[C@H](O[C@@H]3[C@@H](O)[C@H](N)C[C@H](N)[C@H]3O[C@H]3O[C@H](CN)[C@@H](O)[C@H](O)[C@H]3N)O[C@@H]2Cn2cc(CCCCCCc3cn(C[C@H]4O[C@@H](O[C@@H]5[C@@H](O)[C@H](N)C[C@H](N)[C@H]5O[C@H]5O[C@H](CN)[C@@H](O)[C@H](O)[C@H]5N)[C@H](O)[C@@H]4O[C@H]4O[C@@H](CN)[C@@H](O)[C@H](O)[C@H]4N)nn3)nn2)[C@H](N)[C@@H](O)[C@@H]1O` gave an IC50 of 0.097 µM (HIV-1 TAR RNA; ethidium displacement; pH 6.8).
The IC50 of `CN(C(=O)c1ccn2ncc(-c3ccc(C(N)=O)cc3)c2c1)C1CCC(C#N)CC1` (stereo not shown) is reported as 3.7 µM (Phosphatidylinositol 4-kinase (Cryptosporidium parvum, UniProt Q5CVD3); enzyme activity; added: ATP 3 µM).
`CN(C)C(=O)[C@H]1NC(=O)c2cnccc2-c2ccc(cc2)C(F)(F)CCCC(F)(F)c2cccc1c2` has an IC50 of 1.4 ± 0.3 µM (KLRK1 with MICA; ligand binding, inhibitor, TR-FRET; HEK293 expressing NKG2D and DAP10; added: MICA-Alexa647).
With `C=C(NC(=O)C(=C)NC(=O)c1csc(C2=NC3c4csc(n4)C4NC(=O)c5csc(n5)C(C(C)(O)C(C)O)NC(=O)C5CSC(=N5)C(=CC)NC(=O)C(C(C)O)NC(=O)c5csc(n5)C3(CC2)NC(=O)C(C)NC(=O)C(=C)NC(=O)C(C(C)CC)NC2C=Cc3c(C(C)O)cc(nc3C2O)C(=O)OC4C)n1)C(N)=O` (stereo not shown) the IC50 was 2.1 ± 0.4 µM (Proteasome subunit beta type-7, in 20S proteasome (PSMB7, Homo sapiens, UniProt Q99436); trypsin-like activity, inhibitor; purified human 20S proteasome; 37 °C, 15 min preincubation, added: Boc-Leu-Arg-Arg-AMC).
`Cn1nnc(-c2cccc(NC(=O)CS)c2)n1` gave an IC50 of 0.94 µM (Metallo-beta-lactamase type 2; inhibitor; 10 min preincubation, added: FC5 substrate).
For `Nc1ncnc2c1ncn2[C@@H]1O[C@H](CSCCNC(=O)NCCc2ccccc2)[C@@H](O)[C@H]1O`, the IC50 was greater than 50 µM (Protein arginine N-methyltransferase 9 (PRMT9, Homo sapiens, UniProt Q6P2P2); enzyme activity, inhibitor, radiometric).
For `O=C(Nc1ccccc1Nc1ccccc1)c1cccnc1Cl`, the IC50 was 3.18 µM (Succinate dehydrogenase complex (Sus scrofa, UniProt A5GZW8+D0VWV4+Q007T0+Q0QF01); enzyme activity, inhibitor, double-antibody sandwich ELISA).
`C[C@H](CS)C(=O)Nc1cc(-n2nccn2)cc2c1OCO2` has an IC50 of 4.19 µM (Metallo-beta-lactamase type 2; inhibitor; 10 min preincubation, added: FC5 substrate).
With `COC(=O)C1CN1S(=O)(=O)c1ccc(Cl)cc1` (stereo not shown) the IC50 was greater than 200 µM (Protein disulfide-isomerase A3 (PDIA3, Homo sapiens, UniProt P30101); enzyme activity, inhibitor, absorbance; pH 7.6).
For `CN1C(=O)[C@H](Cc2ccccc2)N(C)C(=O)[C@@H]2[C@H]1CCN2Cc1cc(Cl)cc(Cl)c1`, the IC50 was 12.9 µM (KLRK1 with MICA; ligand binding, cellular TR-FRET).
`C#CCCC(=O)N[C@H]1CSCc2cccc(c2)CSCCNC(=O)[C@H](CCC(=O)O)NC(=O)[C@H](CCC(=O)O)NC(=O)[C@H](Cc2ccccc2)NC(=O)[C@@H]2CCCN2C(=O)[C@H](CC(N)=O)NC1=O` has an IC50 of 88.1 ± 1.5 µM (EH domain-containing protein 1, EH domain (Homo sapiens, UniProt Q9H4M9)).
`C[C@H](CS)C(=O)Nc1cccc(-c2nn[nH]n2)c1` gave an IC50 of 0.71 µM (Metallo-beta-lactamase type 2; inhibitor; 10 min preincubation, added: FC5 substrate).
`COc1cc(/C=C(\C#N)C(=O)Nc2nnc(C(F)(F)F)s2)ccc1OC(=O)N1CCN(C(=O)CCCC(=O)NCCCC[C@@H]2NC(=O)[C@@H](Cc3ccc(O)cc3)NC(=O)[C@H](CC(=O)O)NC(=O)CNC(=O)[C@H](CCCNC(=N)N)NC2=O)CC1` gave an IC50 of greater than 100 µM (SRSF protein kinase 1 (SRPK1, Homo sapiens, UniProt Q96SB4); enzyme activity, inhibitor, radiometric).
For `Nc1nc2nc3nc(N)sc3cc2s1`, the IC50 was greater than 500 µM (Genome polyprotein, NS3 protease (Hepatitis C virus genotype 1b, UniProt P26663); Hepatitis C virus).
For `CC[C@H](C)[C@H](NC(=O)[C@H](Cc1ccc(O)cc1)NC(=O)[C@H](CCCNC(=N)N)NC(=O)[C@H](CCCNC(=N)N)NC(=O)[C@H](CC(C)C)NC(=O)[C@H](CC(=O)O)NC(=O)[C@H](C)NC(=O)[C@H](C)NC(=O)[C@H](Cc1ccc(O)cc1)NC(=O)[C@H](CCC(=O)O)NC(=O)[C@H](CC(C)C)NC(=O)[C@@H]1CCCN1C(=O)[C@H](C)N)C(=O)N[C@@H](CC(N)=O)C(=O)N[C@@H](CCSC)C(=O)N[C@@H](CC(C)C)C(=O)N[C@H](C(=O)N[C@@H](CCCNC(=N)N)C(=O)N1CCC[C@H]1C(=O)N[C@@H](CCCNC(=N)N)C(=O)N[C@@H](Cc1ccc(O)cc1)C(N)=O)[C@@H](C)O`, the IC50 was 0.027 µM (NPY4R; radioligand binding; BHK membranes, transfected).
`CCCCCCCCCCCC1N=C(N)N=C(N)N1c1ccc(Cl)cc1` (racemic) has an IC50 of 0.6 to 1.7 µM and 0.9 µM (Dihydrofolate reductase (folA, Staphylococcus aureus, UniProt P0A017); enzyme activity, inhibitor).
`N#Cc1cn([C@@H]2O[C@H](CSCC[C@H](N)C(=O)O)[C@@H](O)[C@H]2O)c2ncnc(N)c12` gave an IC50 of greater than 50 µM (Actin-histidine N-methyltransferase (SETD3, Homo sapiens, UniProt Q86TU7); enzyme activity, inhibitor, radiometric).
`CC(=O)N[C@@H](CCCNC(=N)N)C(=O)N[C@@H](Cc1ccc(O)cc1)C(=O)N[C@@H](CCCNC(=N)N)C(=O)N[C@@H](CC(C)C)C(=O)N[C@@H](CCCNC(=N)NC(=O)NCCCCN)C(=O)N[C@@H](Cc1ccc(O)cc1)C(N)=O` has an IC50 of 8.05 ± 0.12 µM (NPY4R; β-arrestin 2 recruitment, antagonist; HEK293T; added: 3 nM human pancreatic polypeptide).
`CC(C)C[C@H](NC(=O)[C@@H](N)CCCCN)C(=O)NCC(=O)NCC(=O)NCC(=O)N[C@@H](CCC(N)=O)C(=O)N[C@@H](Cc1ccc(O)cc1)C(=O)NCC(=O)N[C@@H](CCC(=O)O)C(=O)O` gave an IC50 of 4.21 µM (HLA class I histocompatibility antigen, A alpha chain, allele A*68:01 (Homo sapiens, UniProt P04439); peptide binding, competitive radioligand binding; room temperature, HLA-A*6801 allele, added: radiolabelled probe peptide).
The IC50 of `CC[N+](CC)(CC)CC` is reported as 830 ± 170 µM (Potassium channel protein kcv (A250R, Paramecium bursaria Chlorella virus 1, UniProt Q84568, L70Y)).
The IC50 of `CC(C)C[C@H](NC(=O)[C@H](C)NC(=O)[C@H](CO)NC(=O)[C@H](CC(=O)O)NC(=O)[C@H](CCC(=O)O)NC(=O)[C@@H]1CCCN1C(=O)[C@H](CC(=O)O)NC(=O)[C@H](CCC(=O)O)NC(=O)[C@@H]1CCCN1C(=O)[C@@H](NC(=O)[C@H](CC(C)C)NC(=O)[C@@H](N)CCC(=O)O)C(C)C)C(=O)O` is reported as greater than 5 µM (HLA-DRA/HLA-DRB3 (Homo sapiens, UniProt P01903+P79483); binding, competition binding; purified HLA-DR; 48 h, added: radiolabelled probe peptide 0.1-1 nM).
`O=C(CCCc1ccccc1)NC1CCOC1=O` (stereo not shown) has an IC50 of 1 µM (Transcriptional activator protein LasR (lasR, Pseudomonas aeruginosa, UniProt P25084); reporter gene, antagonist; Escherichia coli, JLD271 with LasR plasmid; added: OdDHL 2 nM).
The IC50 of `CC(C)C[C@H](NC(=O)[C@H](CCCNC(=N)N)NC(=O)[C@H](CCC(=O)O)NC(=O)[C@H](CCCCN)NC(=O)[C@H](CCCNC(=N)N)NC(=O)[C@H](CCCCN)NC(=O)[C@H](CCC(=O)O)NC(=O)[C@H](CC(C)C)NC(=O)[C@H](Cc1ccccc1)NC(=O)[C@H](CCCNC(=N)N)NC(=O)[C@H](C)NC(=O)[C@H](CC(C)C)NC(=O)[C@H](CO)NC(=O)[C@H](C)NC(=O)[C@H](CCCCN)NC(=O)[C@H](CCCNC(=N)N)NC(=O)[C@H](C)NC(=O)[C@H](CCC(N)=O)NC(=O)[C@@H]1CCCN1C(=O)[C@@H](NC(=O)[C@H](CO)NC(=O)c1ccc2c(c1)C(=O)OC21c2ccc(N(C)C)cc2Oc2cc(N(C)C)ccc21)C(C)C)C(=O)O` is reported as 37 ± 10 µM (Transcription factor MYC3 (MYC3, Arabidopsis thaliana, UniProt Q9FIP9); JAZ9 peptide binding, inhibitor, AlphaScreen; pH 8.0, 25 °C, added: 50 nM biotin-JAZ9 peptide).
`O=C(COc1ccc2c(c1O)C(=O)c1ccccc1C2=O)c1ccccc1` has an IC50 of 39 ± 6 µM (Gag-Pol polyprotein, reverse transcriptase RNase H (gag-pol, Human immunodeficiency virus 1, UniProt P03366); RNase H activity; wild-type reverse transcriptase).
`CC(=O)Nc1ccc2ccn(-c3cc(NC4C5CC6CC(C5)CC4C6)n4ncc(C#N)c4n3)c2c1` (stereo not shown) gave an IC50 of 7.94 µM (Casein kinase II subunit alpha (CSNK2A1, Homo sapiens, UniProt P68400); target engagement in cells, BRET).
The IC50 of `O=C(O)CCn1c(=O)oc2cc(Cl)c(Cl)cc21` is reported as 7 µM (Kynurenine 3-monooxygenase (Rattus norvegicus, UniProt O88867); enzyme activity, inhibitor; HEK cells expressing target).
With `CC[C@@H]1C(=O)N(C)c2cnc(Nc3ccc(C(=O)NCCCC[C@H](NC(=O)[C@@H](NC(=O)[C@H](CO)NC(=O)[C@H](Cc4cncn4CCCCCCCCc4ccccc4)NC(=O)[C@H](CC(C)C)NC(=O)[C@@H]4CCCN4C(C)=O)[C@@H](C)CP(=O)(O)O)C(N)=O)cc3OC)nc2N1C1CCCC1` the IC50 was 0.0032 ± 3.9e-05 µM (Serine/threonine-protein kinase PLK1 (PLK1, Homo sapiens, UniProt P53350); enzyme activity, inhibitor).
`NCCCC[C@@H](NC(=O)[C@H](Cc1c[nH]cn1)NC(=O)[C@H](CO)NC(=O)[C@H](Cc1c[nH]c2ccccc12)NC(=O)[C@H](Cc1c[nH]cn1)NC(=O)[C@@H]1CCC(=O)N1)C(=O)N[C@@H](Cc1c[nH]c2ccccc12)C(=O)N[C@@H](Cc1ccc(O)cc1)C(=O)N1CCC[C@H]1C(=O)NCC(N)=O` gave an IC50 of 0.0007 ± 0.0002 µM (Gonadotropin-releasing hormone receptor (Rattus norvegicus, UniProt P30969); binding, radioligand displacement; WPE-1-NB26-3 expressing Gonadotropin-releasing hormone receptor, whole cells; added: radioiodinated GnRH analogue).

For quick reference, copied from above:
`Cn1nnc(-c2cccc(NC(=O)CS)c2)n1` gave an IC50 of 0.94 µM (Metallo-beta-lactamase type 2; inhibitor; 10 min preincubation, added: FC5 substrate).
For `Nc1ncnc2c1ncn2[C@@H]1O[C@H](CSCCNC(=O)NCCc2ccccc2)[C@@H](O)[C@H]1O`, the IC50 was greater than 50 µM (Protein arginine N-methyltransferase 9 (PRMT9, Homo sapiens, UniProt Q6P2P2); enzyme activity, inhibitor, radiometric).
For `O=C(Nc1ccccc1Nc1ccccc1)c1cccnc1Cl`, the IC50 was 3.18 µM (Succinate dehydrogenase complex (Sus scrofa, UniProt A5GZW8+D0VWV4+Q007T0+Q0QF01); enzyme activity, inhibitor, double-antibody sandwich ELISA).
